Published values from different studies.
Numbered parts are unrelated; each lists some results of a single study.
Chain of UniProt Q9HAZ1 (whole entry, looked up): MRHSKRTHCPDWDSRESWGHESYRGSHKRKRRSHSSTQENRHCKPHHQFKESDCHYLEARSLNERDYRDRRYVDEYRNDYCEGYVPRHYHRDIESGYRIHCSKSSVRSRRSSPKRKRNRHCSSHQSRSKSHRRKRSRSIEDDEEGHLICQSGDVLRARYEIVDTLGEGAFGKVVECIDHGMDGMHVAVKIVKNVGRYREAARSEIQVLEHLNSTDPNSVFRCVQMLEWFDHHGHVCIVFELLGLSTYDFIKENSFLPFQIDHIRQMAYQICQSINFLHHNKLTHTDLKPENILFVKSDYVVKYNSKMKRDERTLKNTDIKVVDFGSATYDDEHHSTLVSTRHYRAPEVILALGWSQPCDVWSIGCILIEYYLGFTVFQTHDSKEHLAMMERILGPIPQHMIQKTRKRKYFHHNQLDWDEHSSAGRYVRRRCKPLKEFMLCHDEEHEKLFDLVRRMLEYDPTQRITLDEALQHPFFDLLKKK
Chain of UniProt P08581 (whole entry, looked up): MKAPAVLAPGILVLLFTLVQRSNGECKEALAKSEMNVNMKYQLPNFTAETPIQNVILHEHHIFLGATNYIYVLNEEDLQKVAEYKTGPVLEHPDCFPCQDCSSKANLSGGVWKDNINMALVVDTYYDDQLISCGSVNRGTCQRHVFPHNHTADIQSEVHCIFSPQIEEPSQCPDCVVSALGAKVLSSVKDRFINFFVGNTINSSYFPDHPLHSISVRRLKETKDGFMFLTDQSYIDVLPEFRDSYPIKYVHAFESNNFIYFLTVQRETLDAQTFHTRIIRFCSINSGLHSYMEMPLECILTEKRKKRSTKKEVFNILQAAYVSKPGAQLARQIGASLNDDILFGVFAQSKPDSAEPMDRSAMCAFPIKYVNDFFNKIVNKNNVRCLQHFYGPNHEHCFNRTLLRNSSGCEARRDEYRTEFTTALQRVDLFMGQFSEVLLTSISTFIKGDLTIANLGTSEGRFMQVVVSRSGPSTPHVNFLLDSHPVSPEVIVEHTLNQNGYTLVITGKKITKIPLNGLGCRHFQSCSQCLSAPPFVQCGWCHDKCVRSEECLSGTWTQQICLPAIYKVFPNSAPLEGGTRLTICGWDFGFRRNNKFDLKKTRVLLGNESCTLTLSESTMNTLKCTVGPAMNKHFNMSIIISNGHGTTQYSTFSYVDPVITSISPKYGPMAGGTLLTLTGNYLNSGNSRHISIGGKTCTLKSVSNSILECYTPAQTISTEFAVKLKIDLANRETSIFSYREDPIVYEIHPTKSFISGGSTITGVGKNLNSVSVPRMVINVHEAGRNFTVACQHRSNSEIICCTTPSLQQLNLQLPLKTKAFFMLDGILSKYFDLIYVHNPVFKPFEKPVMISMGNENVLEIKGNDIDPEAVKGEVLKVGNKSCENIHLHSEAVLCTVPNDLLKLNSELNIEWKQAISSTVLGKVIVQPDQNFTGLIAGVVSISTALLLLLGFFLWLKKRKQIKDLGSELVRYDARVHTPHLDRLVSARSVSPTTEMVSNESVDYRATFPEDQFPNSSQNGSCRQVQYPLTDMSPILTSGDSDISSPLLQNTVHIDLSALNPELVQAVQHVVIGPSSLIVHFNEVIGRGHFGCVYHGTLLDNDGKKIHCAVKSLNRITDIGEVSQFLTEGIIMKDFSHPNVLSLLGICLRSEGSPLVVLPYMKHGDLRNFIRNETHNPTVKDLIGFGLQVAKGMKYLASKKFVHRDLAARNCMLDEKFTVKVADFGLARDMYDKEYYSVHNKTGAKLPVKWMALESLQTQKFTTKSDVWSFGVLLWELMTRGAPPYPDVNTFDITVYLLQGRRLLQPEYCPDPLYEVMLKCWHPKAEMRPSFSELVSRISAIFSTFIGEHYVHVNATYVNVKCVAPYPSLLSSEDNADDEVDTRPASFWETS
Chain of UniProt Q15746 (whole entry, looked up): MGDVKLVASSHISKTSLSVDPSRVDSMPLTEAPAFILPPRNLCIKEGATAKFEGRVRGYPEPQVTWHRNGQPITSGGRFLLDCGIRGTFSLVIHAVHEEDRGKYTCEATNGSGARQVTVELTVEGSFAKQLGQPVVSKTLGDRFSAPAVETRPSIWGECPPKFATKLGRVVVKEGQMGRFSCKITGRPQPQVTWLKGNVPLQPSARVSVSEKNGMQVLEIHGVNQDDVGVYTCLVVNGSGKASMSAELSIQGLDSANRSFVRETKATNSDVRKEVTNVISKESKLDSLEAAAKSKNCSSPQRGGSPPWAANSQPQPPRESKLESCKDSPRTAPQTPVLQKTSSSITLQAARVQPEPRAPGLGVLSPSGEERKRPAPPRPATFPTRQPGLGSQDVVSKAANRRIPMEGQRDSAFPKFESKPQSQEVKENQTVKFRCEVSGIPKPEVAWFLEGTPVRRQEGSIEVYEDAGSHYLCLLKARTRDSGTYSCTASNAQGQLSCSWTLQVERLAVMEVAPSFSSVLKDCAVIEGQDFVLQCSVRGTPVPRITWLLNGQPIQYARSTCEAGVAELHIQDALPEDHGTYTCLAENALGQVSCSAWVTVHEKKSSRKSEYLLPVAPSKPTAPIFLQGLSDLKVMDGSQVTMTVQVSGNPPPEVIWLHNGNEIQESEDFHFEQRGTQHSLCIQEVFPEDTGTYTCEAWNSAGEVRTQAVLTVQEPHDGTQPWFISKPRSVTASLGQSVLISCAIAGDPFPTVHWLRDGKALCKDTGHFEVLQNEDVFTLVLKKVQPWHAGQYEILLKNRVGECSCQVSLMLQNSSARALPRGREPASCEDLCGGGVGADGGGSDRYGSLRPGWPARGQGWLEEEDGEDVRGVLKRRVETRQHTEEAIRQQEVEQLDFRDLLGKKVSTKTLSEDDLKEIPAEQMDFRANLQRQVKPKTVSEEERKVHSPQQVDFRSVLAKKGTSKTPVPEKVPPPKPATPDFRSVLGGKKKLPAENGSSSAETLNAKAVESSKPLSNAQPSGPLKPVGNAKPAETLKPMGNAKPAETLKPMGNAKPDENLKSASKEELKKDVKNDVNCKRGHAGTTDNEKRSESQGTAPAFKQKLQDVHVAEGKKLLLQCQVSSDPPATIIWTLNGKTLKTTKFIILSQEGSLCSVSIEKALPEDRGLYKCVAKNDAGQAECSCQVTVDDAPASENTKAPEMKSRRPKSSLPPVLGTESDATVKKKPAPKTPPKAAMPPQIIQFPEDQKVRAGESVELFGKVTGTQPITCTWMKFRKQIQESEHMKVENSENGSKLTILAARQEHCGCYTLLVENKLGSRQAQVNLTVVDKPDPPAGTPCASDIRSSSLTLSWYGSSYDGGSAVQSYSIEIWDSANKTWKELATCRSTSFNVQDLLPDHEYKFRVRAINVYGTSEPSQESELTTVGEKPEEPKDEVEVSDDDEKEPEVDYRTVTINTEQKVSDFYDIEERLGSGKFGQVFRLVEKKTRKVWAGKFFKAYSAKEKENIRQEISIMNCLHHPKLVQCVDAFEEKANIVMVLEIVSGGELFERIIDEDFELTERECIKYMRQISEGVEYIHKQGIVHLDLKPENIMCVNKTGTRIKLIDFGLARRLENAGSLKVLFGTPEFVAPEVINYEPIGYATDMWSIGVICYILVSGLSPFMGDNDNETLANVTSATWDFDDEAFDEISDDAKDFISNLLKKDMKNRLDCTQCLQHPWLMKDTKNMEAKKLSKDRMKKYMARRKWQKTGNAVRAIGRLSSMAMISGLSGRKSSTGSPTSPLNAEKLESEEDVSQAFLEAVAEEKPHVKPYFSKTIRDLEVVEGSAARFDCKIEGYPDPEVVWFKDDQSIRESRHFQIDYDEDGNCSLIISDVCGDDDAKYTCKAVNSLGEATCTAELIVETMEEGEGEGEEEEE
Chain of UniProt P27361 (whole entry, looked up): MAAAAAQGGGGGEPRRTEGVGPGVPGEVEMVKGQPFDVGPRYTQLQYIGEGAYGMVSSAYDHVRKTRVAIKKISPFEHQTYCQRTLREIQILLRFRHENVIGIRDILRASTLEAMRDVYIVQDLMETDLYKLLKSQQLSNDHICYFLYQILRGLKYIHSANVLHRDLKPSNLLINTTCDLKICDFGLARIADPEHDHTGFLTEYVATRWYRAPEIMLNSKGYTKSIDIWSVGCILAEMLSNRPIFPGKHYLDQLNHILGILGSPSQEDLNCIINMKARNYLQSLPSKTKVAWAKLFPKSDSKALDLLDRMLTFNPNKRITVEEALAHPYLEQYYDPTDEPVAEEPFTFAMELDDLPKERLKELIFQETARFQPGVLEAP

Study 1 — read-out: binding; concentration: 1 µM
SMILES: CN1CCN(C(=O)c2ccc(NC(=O)Nc3ccc(N(C)c4ccnc(Nc5ccc(CS(C)(=O)=O)cc5)n4)cc3)cc2)CC1
For MYLK (Homo sapiens, UniProt Q15746): remaining binding read 100%.
For MAPK3 (Homo sapiens, UniProt P27361): remaining binding read 100%.
The remaining binding was 100% (WNK4 (Homo sapiens, UniProt Q96J92)).
It gave 32% for remaining binding (MAP4K5 (Homo sapiens, UniProt Q9Y4K4); competition with immobilised ligand).
The remaining binding was 23% (TNIK (Homo sapiens, UniProt Q9UKE5); competition with immobilised ligand).
For CLK4 (Homo sapiens, UniProt Q9HAZ1): remaining binding read 100%.

Study 2 — read-out: cell-free assay; technique: competition with immobilised ligand; concentration: 1 µM
SMILES: O=C(O)[C@H]1[C@H](Cn2nnc3ccccc3c2=O)CC[C@@H]1C(=O)c1ccc(OCCC2CCOCC2)cc1
FGFR3 (Homo sapiens, UniProt P22607) — remaining binding: 100%.
Cyclin-dependent kinase 4, with cyclin D3 (CDK4, Homo sapiens, UniProt P11802) — remaining binding: 89%.
MET (Homo sapiens, UniProt P08581) — remaining binding: 94%.
STK25 (Homo sapiens, UniProt O00506) — remaining binding: 90%.

Study 3 — read-out: enzyme activity; action: inhibitor; concentration: 0.5 µM; baseline: control
Target: MAP/microtubule affinity-regulating kinase 4 (MARK4, Homo sapiens, UniProt Q96L34)
Chain of UniProt Q96L34 (whole entry, looked up): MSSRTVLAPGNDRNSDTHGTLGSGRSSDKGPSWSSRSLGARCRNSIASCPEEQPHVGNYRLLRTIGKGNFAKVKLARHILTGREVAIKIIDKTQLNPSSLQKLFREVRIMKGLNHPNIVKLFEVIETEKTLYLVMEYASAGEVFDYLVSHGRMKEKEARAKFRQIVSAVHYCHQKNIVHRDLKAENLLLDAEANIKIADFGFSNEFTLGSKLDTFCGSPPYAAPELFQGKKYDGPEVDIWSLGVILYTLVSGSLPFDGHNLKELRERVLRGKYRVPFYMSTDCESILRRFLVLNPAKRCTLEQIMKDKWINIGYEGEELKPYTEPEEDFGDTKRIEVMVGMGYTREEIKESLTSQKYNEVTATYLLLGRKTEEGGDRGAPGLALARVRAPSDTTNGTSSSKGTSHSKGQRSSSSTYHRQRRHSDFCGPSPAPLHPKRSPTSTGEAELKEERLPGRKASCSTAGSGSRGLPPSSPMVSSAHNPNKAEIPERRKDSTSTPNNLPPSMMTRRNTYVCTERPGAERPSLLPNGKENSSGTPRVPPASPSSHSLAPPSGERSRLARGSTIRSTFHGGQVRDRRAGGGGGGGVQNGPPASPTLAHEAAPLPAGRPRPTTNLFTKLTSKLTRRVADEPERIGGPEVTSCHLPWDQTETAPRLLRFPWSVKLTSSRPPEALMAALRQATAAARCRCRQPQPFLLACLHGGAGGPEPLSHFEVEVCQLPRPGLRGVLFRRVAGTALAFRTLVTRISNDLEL
The remaining activity of `O=c1c2ccccc2[nH]c(=S)n1CCN1CCC(=C(c2ccc(F)cc2)c2ccc(F)cc2)CC1` is reported as 102%.
With `CCOC(=O)c1c(C)[nH]c(/C=C2\C(=O)Nc3ccccc32)c1C` the remaining activity was 99.6%.
For `COc1ccc(C(=O)Nc2sc3c(c2C(N)=O)CCCC3)cc1OC`, the remaining activity was 86.5%.
`O=C1NC(=O)C(c2cn(CCCO)c3ncccc23)=C1c1cnccn1` gave a remaining activity of 93.9%.
`Nc1ccc2ncnc(NCCc3ccc(Oc4ccccc4)cc3)c2c1` gave a remaining activity of 105%.
The remaining activity of `Cc1cccc(-c2[nH]c(C(C)(C)C)nc2-c2ccc3c(c2)OCO3)n1` is reported as 99.7%.
`OCC(O)CCON=C1C(c2c(O)[nH]c3ccccc23)=Nc2ccccc21` (stereo not shown) has a remaining activity of 43.5%.
The remaining activity of `O=C(Nc1cccc(Nc2cc(Nc3cccc(C(F)(F)F)c3)ncn2)c1)C1CC1` is reported as 101%.
With `COc1cc2nccc(Oc3ccc(NC(=S)NC(=O)c4ccccc4C)cc3)c2cc1OC` the remaining activity was 73.3%.
For `Oc1ccc(-c2nc(-c3ccncc3)c(-c3ccc(F)cc3)[nH]2)cc1`, the remaining activity was 100%.
The remaining activity of `COc1ccc(OC)c2c(=S)c3ccccc3[nH]c12` is reported as 95.7%.
`Cn1c2ccccc2c2c3c(c4c5ccccc5n(CCC#N)c4c21)CNC3=O` has a remaining activity of 10.8%.
The remaining activity of `Cc1ccc(NC(=O)c2ccc(CN3CCN(C)CC3)cc2)cc1Nc1nc(-c2cccnc2)cs1` is reported as 101%.

Study 4 — cell line: HuT78; concentration: 2 µM; time: 48 h; baseline: untreated
The viability of `O=C1N=C(NCc2cccs2)S/C1=C\c1ccc2ncccc2c1` is reported as 117%.
`c1cncc(CN2CCC(n3ncc4c(N5CCOCC5)nc(-c5ccc6[nH]ccc6c5)nc43)CC2)c1` gave a viability of 78.2%.
For `CC(=O)c1c(C)c2cnc(Nc3ccc(N4CCNCC4)cn3)nc2n(C2CCCC2)c1=O`, the viability was 94.5%.
`Cc1cc(CS(=O)(=O)c2ccccc2)cc(OCc2ccc(CN3CCC[C@@H]3CO)cc2)c1` has a viability of 120%.

Further values, each from its own experiment
With `CN(C)c1ccc(Nc2c3ccc(NC(=O)CCN4CCCC4)cc3nc3cc(NC(=O)CCN4CCCC4)ccc23)cc1` the Kd was 50 nM (G-quadruplex RNA, G-quadruplex (Homo sapiens); microscale thermophoresis; KCl 150 mM).

For quick reference, copied from above (study 4):
`c1cncc(CN2CCC(n3ncc4c(N5CCOCC5)nc(-c5ccc6[nH]ccc6c5)nc43)CC2)c1` gave a viability of 78.2%.
For `CC(=O)c1c(C)c2cnc(Nc3ccc(N4CCNCC4)cn3)nc2n(C2CCCC2)c1=O`, the viability was 94.5%.
`Cc1cc(CS(=O)(=O)c2ccccc2)cc(OCc2ccc(CN3CCC[C@@H]3CO)cc2)c1` has a viability of 120%.
